Results pooled from the literature.
Numbers after ± are the reported error.
SLC22A2: Solute carrier family 22 member 2 (SLC22A2, Homo sapiens, UniProt O15244)
UniProt O15244, sequence (whole entry, looked up): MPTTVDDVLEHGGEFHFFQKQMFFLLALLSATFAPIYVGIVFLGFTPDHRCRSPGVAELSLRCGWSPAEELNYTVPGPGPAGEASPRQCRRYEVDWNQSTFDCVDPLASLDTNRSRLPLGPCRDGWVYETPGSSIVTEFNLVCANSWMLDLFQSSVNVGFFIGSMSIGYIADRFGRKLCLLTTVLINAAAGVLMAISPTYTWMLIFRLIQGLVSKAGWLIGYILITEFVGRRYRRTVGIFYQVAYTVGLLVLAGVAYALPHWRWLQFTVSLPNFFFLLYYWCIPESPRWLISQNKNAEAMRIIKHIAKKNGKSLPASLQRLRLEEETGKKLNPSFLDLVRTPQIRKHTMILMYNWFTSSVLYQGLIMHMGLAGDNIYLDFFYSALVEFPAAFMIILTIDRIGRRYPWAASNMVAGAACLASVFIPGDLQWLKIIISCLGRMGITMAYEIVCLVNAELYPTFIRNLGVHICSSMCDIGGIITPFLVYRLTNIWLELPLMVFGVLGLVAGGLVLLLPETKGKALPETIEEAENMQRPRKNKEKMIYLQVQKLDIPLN
NR1I2: Nuclear receptor subfamily 1 group I member 2 (NR1I2, Homo sapiens, UniProt O75469)
UniProt O75469, sequence (whole entry, looked up): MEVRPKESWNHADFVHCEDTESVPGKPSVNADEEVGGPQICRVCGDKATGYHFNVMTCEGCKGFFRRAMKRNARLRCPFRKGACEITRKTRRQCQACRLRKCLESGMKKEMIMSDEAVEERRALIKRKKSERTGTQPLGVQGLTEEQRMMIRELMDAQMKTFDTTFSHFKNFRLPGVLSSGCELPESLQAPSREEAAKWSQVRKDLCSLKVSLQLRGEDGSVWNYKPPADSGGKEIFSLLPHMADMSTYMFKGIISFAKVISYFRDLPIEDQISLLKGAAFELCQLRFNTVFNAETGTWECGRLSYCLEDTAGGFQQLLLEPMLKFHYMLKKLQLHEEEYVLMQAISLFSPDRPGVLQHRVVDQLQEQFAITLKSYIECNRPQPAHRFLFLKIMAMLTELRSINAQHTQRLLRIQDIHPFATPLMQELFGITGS
ALB: Albumin (ALB, Homo sapiens, UniProt P02768)
UniProt Q9NSA0, sequence (whole entry, looked up): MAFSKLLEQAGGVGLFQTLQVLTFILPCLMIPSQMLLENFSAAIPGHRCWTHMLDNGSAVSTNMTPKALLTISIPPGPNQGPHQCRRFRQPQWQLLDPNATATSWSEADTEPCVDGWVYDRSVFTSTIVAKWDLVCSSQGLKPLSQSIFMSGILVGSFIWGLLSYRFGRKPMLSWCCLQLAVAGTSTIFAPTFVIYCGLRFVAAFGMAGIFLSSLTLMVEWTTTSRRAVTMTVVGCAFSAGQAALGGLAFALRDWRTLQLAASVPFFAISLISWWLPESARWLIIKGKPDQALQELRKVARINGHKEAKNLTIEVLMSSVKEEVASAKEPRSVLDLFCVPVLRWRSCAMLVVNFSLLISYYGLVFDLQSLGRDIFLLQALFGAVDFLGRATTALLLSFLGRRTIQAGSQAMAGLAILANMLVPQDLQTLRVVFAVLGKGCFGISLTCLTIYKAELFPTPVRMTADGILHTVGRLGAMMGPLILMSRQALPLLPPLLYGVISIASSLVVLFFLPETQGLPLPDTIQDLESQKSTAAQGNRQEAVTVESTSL
UniProt P08183, sequence (whole entry, looked up): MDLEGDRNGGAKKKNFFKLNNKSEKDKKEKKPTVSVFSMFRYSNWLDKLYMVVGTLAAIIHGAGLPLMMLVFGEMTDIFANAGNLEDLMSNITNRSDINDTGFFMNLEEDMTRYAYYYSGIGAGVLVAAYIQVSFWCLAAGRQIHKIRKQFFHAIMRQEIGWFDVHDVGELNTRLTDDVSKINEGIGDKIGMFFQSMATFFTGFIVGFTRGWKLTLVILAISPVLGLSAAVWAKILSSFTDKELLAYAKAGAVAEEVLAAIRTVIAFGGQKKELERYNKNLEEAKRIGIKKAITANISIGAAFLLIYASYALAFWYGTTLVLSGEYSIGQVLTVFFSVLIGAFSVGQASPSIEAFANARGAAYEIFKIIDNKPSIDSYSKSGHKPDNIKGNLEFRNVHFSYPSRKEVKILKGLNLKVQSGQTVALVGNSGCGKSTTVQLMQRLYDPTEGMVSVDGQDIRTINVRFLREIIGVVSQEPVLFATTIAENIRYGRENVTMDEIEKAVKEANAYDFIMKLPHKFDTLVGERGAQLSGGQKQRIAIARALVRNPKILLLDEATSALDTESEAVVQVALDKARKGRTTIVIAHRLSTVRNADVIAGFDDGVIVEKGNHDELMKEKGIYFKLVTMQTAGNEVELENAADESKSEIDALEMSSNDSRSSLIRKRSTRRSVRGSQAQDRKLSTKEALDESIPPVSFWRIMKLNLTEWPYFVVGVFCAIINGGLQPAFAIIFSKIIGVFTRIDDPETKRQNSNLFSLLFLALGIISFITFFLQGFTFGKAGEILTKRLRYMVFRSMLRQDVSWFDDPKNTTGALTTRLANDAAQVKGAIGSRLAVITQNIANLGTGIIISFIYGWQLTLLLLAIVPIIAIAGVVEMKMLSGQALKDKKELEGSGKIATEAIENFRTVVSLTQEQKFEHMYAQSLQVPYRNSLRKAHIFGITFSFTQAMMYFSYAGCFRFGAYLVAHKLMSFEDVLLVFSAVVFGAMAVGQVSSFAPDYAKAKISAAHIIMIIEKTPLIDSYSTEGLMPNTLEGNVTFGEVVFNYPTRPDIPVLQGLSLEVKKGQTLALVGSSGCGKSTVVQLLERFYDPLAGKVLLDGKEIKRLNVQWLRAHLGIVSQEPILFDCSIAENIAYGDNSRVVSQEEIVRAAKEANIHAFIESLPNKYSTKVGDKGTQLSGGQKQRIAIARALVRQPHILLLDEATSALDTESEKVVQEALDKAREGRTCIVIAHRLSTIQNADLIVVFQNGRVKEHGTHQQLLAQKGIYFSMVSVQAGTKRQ
UniProt Q59SU1, sequence (whole entry, looked up): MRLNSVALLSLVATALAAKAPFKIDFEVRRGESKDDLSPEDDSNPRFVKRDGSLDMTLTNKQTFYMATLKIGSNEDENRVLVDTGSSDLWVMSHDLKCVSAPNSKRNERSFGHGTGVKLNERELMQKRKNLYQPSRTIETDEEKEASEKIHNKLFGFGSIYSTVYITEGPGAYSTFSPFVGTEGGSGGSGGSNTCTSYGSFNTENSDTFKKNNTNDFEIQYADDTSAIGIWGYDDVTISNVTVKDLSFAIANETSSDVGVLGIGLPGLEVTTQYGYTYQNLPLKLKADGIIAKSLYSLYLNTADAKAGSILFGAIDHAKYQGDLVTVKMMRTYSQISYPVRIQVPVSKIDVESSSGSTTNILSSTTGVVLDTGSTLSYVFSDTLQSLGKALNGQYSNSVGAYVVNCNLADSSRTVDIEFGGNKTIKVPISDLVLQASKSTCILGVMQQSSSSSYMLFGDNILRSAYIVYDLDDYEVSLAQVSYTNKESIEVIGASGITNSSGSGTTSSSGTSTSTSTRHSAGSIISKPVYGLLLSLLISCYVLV
UniProt P11234, sequence (whole entry, looked up): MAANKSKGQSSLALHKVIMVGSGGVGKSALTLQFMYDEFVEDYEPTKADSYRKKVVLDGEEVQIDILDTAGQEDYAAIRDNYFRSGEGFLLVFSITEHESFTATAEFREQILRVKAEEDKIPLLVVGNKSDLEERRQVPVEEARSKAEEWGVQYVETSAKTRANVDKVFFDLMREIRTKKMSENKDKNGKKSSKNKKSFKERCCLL
UniProt P07724, sequence (whole entry, looked up): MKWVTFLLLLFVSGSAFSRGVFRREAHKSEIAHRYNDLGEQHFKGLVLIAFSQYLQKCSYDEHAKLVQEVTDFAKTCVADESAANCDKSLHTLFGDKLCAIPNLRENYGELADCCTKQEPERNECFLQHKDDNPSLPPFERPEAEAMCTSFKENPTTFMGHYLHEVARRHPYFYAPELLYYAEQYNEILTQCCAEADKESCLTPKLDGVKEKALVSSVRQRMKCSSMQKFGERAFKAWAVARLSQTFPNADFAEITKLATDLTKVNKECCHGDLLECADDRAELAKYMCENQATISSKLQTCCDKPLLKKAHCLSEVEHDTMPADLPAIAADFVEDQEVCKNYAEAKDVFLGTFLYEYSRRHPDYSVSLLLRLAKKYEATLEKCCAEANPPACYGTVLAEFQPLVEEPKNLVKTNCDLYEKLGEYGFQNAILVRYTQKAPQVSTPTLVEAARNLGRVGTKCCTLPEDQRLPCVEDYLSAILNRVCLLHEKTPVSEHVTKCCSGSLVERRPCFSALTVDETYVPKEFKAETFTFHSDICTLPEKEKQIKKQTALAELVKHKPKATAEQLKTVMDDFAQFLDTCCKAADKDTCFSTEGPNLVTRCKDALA

With `CCCCCCCCc1ccc(CCC(N)(CO)CO)cc1` the inhibition was -2.5% (SLC22A2; transport, inhibitor; transiently transfected cells; 100 µM, 10 (unit not given), with: metformin).
`O=C1c2ccccc2C(=O)C1C(=O)C(c1ccccc1)c1ccccc1` — result for activity: “inactive” (NR1I2; concentration not given).
For `CCOc1ccc(-c2nc3ccc(-c4nc5ccc(N6CCN(C)CC6)cc5[nH]4)cc3[nH]2)cc1`, the Kd was 4 ± 7 µM (Albumin (Mus musculus, UniProt P07724); binding, fluorescence titration; PBS; 1 h).
With `COc1cc(-c2[o+]c3cc(O)cc(O)c3cc2O[C@@H]2O[C@H](CO)[C@@H](O)[C@H](O)[C@H]2O)cc(OC)c1O` the Kd was 104 ± 8.04 µM (ALB; binding, fluorescence quenching; pH 7, 40 °C, HSA 2 µM).
For `O=C1c2ccccc2C(=O)C1c1ccccc1`, activity read “inactive” (NR1I2; concentration not given).
`C[C@H](NC(=O)[C@H](Cc1cnc[nH]1)NC(=O)[C@H](CO)NC(=O)[C@@H](N)CC(=O)O)C(=O)N[C@@H](CCCCN)C(=O)N[C@@H](CCCNC(=N)N)C(=O)N[C@@H](Cc1cnc[nH]1)C(=O)N[C@@H](Cc1cnc[nH]1)C(=O)NCC(=O)N[C@@H](Cc1ccc(O)cc1)C(=O)N[C@@H](CCCCN)C(=O)N[C@@H](CCCNC(=N)N)C(=O)N[C@@H](CCCCN)C(=O)N[C@@H](Cc1ccccc1)C(=O)N[C@@H](Cc1cnc[nH]1)C(=O)N[C@@H](CCC(=O)O)C(=O)N[C@@H](CCCCN)C(=O)N[C@@H](Cc1cnc[nH]1)C(=O)N[C@@H](Cc1cnc[nH]1)C(=O)N[C@@H](CO)C(=O)N[C@@H](Cc1cnc[nH]1)C(=O)N[C@@H](CCCNC(=N)N)C(=O)NCC(=O)N[C@@H](Cc1ccc(O)cc1)C(=O)O` — result for “intact peptide remaining”: 41.5% (Secreted aspartic protease 9 (SAP9, Candida albicans, UniProt Q59SU1); proteolytic degradation, gel densitometry; 150 µg/mL, 2 h, pH 7.4, with: SAP9 3.1 µg/mL).
`CCN(CC)CCCC(C)Nc1ccnc2cc(Cl)ccc12` (centres unmarked) gave an inhibition of 63.6% (SLC22A2; transport, inhibitor; transiently transfected cells; 100 µM, 10 (unit not given), with: metformin).
`CC(C)CC(=O)OC[C@H]1O[C@@](C#N)(c2ccc3c(N)ncnn23)[C@H](O)[C@@H]1O` has a recovery of 44.9% (ABCB1 (Homo sapiens, UniProt P08183); apical to basolateral transport; Caco-2; 9 µM, 2 h, with: zosuquidar 25 µM).
With `Clc1ccccc1-c1ccccc1Cl` the mRNA level was less than 20% (NR1I2; agonist, measured: CYP3A4; differentiated HepaRG; concentration not given, 24 h; baseline: maximum rifampicin induction).
`CC[C@H](C)[C@H](NC(=O)[C@H](CC(C)C)NC(=O)[C@H](CCCNC(=N)N)NC(=O)[C@@H](N)CCCNC(=N)N)C(=O)N[C@@H](CCCNC(=N)N)C(=O)N[C@@H](CCCCN)C(=O)N[C@@H](CC(C)C)C(=O)N[C@@H](CCCCN)C(=O)NCC(=O)N[C@@H](CC(C)C)C(=O)N[C@@H](CCCCN)C(=O)N[C@@H](CCCCN)C(=O)N[C@@H](Cc1ccc(O)cc1)C(=O)N[C@@H](CC(C)C)C(=O)N[C@@H](Cc1ccc(O)cc1)C(=O)N[C@@H](Cc1ccccc1)C(=O)N[C@@H](CCCCN)C(=O)N[C@@H](CC(C)C)C(=O)N[C@@H](CCC(N)=O)C(=O)N[C@@H](CC(C)C)C(=O)N[C@@H](CC(C)C)C(=O)N[C@@H](CCCCN)C(=O)N[C@@H](CCCCN)C(N)=O` — result for “time to near-complete degradation”: 18 to 20 h (Chymotrypsinogen A (Bos taurus, UniProt P00766); substrate, HPLC; 150 µM, pH 7.4, 37 °C, with: chymotrypsin 0.1 µg/mL).
`O=C1NC2(CCC2)C(=O)N1c1ccc(F)c(C(F)(F)F)c1` has an unbound fraction of 0.329 (ALB).
`CCC(CC)COC(=O)[C@H](C)N[P@](=O)(OC[C@H]1O[C@@](C#N)(c2ccc3c(N)ncnn23)[C@H](O)[C@@H]1O)Oc1ccccc1` has an inhibition of 30.8% (SLC22A2; transport, inhibitor; transiently transfected cells; 100 µM, 10 (unit not given), with: metformin).
`CC[C@H](C)[C@H](NC(=O)[C@H](CCCCN)NC(=O)[C@H](CCC(=O)O)NC(=O)[C@H](CCCCN)NC(=O)[C@H](CO)NC(=O)[C@H](CCCCN)NC(=O)[C@H](CCCNC(=N)N)NC(=O)[C@H](Cc1ccccc1)NC(=O)[C@H](Cc1ccccc1)NC(=O)[C@H](CC(=O)O)NC(=O)CNC(=O)[C@H](CC(C)C)NC(=O)[C@@H](N)CC(C)C)C(=O)NCC(=O)N[C@@H](CCCCN)C(=O)N[C@@H](CCC(=O)O)C(=O)N[C@@H](Cc1ccccc1)C(=O)N[C@@H](CCCCN)C(=O)N[C@@H](CCCNC(=N)N)C(=O)N[C@H](C(=O)N[C@H](C(=O)N[C@@H](CCC(N)=O)C(=O)N[C@@H](CCCNC(=N)N)C(=O)N[C@H](C(=O)N[C@@H](CCCCN)C(=O)N[C@@H](CC(=O)O)C(=O)N[C@@H](Cc1ccccc1)C(=O)N[C@@H](CC(C)C)C(=O)N[C@@H](CCCNC(=N)N)C(=O)N[C@@H](CC(N)=O)C(=O)N[C@@H](CC(C)C)C(=O)N[C@H](C(=O)N1CCC[C@H]1C(=O)N[C@@H](CCCNC(=N)N)C(=O)N[C@H](C(=O)N[C@@H](CCC(=O)O)C(=O)N[C@@H](CO)C(=O)O)[C@@H](C)O)C(C)C)[C@@H](C)CC)C(C)C)[C@@H](C)CC` — result for “remaining intact peptide”: 2.07% (trypsin; LC-MS; 40 µM, 120 min, pH 7.5, 37 °C; baseline: 0 h).
`CO[C@H]1C[C@H](O[C@@H]2/C(C)=C/C[C@@H]3C[C@@H](C[C@]4(CC[C@H](C)[C@@H](C5CCCCC5)O4)O3)OC(=O)[C@@H]3C=C(C)/C(=N/O)[C@H]4OC/C(=C\C=C\[C@@H]2C)[C@]43O)O[C@@H](C)[C@@H]1O` — result for activity: “inactive” (NR1I2; concentration not given).
The inhibition of `O=C1CCC(N2C(=O)c3ccccc3C2=O)C(=O)N1` (centres unmarked) is reported as 17.6% (SLC22A2; transport, inhibitor; transiently transfected cells; 100 µM, 10 (unit not given), with: metformin).
Under “enzyme contribution to CLint”, `CC1(C)[C@H](C(=O)OCc2cccc(Oc3ccccc3)c2)[C@@H]1C=C(Cl)Cl` is recorded as 3.51% (human CYP2C19; IVIVE from expressed enzymes; human, liver, in vivo scaled; 0.1 µM, age-specific).
The mRNA level of `Clc1ccc(Cl)c(-c2ccccc2Cl)c1` is reported as less than 20% (NR1I2; agonist, measured: CYP3A4; differentiated HepaRG; concentration not given, 24 h; baseline: maximum rifampicin induction).
For `CC1(C)C(/C=C(\Cl)C(F)(F)F)C1C(=O)OC(C#N)c1cccc(Oc2ccccc2)c1` (centres unmarked), “enzyme contribution to CLint” read 0.49% (human CYP2C19; IVIVE from expressed enzymes; human, liver, in vivo scaled; age-specific).
`O=C(Nc1c2c(cc3c1CCC3)CCC2)NS(=O)(=O)/C=C/c1nccs1` gave an inhibition of less than 0% (human CYP3A4; human liver microsomes; 10 µM, pH 7.4, with: midazolam).
`CCS(=O)(=O)N1CC(CC#N)(n2cc(-c3ncnc4[nH]ccc34)cn2)C1` has an inhibition of 47.5% (SLC22A2; transport, inhibitor; 50 µM, 10 (unit not given), with: metformin).
For `O=C1c2ccccc2C(=O)C1C(=O)C(c1ccccc1)c1ccc(Cl)cc1` (centres unmarked), activity read “inactive” (NR1I2; concentration not given).
`CCCCc1nc(Cl)c(CO)n1Cc1ccc(-c2ccccc2-c2nn[nH]n2)cc1` has an inhibition of -12.9% (SLC22A2; transport, inhibitor; transiently transfected cells; 100 µM, 10 (unit not given), with: metformin).
Under “enzyme contribution to CLint”, `Cc1c(COC(=O)[C@@H]2[C@H](/C=C(\Cl)C(F)(F)F)C2(C)C)cccc1-c1ccccc1` (racemic) is recorded as 53.9% (human CYP2C19; IVIVE from expressed enzymes; human, liver, in vivo scaled; 0.1 µM, age-specific).
`O=S(=O)(F)c1ccc(S(=O)(=O)Nc2cc(F)cc(C3CC3)c2)c2c1CCCC2` has a reaction half-life of 10 h (RALB (Homo sapiens, UniProt P11234); covalent labelling; 4 °C, protein 2 µM).
`CCOC(=O)C1=C[C@@H](OC(CC)CC)[C@H](NC(C)=O)[C@@H](N)C1` gave an inhibition of 12.7% (SLC22A2; transport, inhibitor; transiently transfected cells; 100 µM, 10 (unit not given), with: metformin).
`CCCC[C@H]1C(=O)N(C)[C@@H](CCCC)C(=O)N[C@@H](CCCCNC(=O)CN2CCN(CC(=O)O)CCN(CC(=O)O)CC2)C(=O)N[C@H](C(=O)NCC(N)=O)CSCC(=O)N[C@@H](Cc2ccc(O)cc2)C(=O)N(C)[C@@H](C)C(=O)N[C@@H](CC(N)=O)C(=O)N2CCC[C@H]2C(=O)N[C@@H](Cc2c[nH]cn2)C(=O)N[C@@H](CCC(=O)O)C(=O)N2C[C@H](O)C[C@H]2C(=O)N[C@@H](Cc2c[nH]c3ccccc23)C(=O)N[C@@H](CO)C(=O)N[C@@H](Cc2cn(CC(=O)O)c3ccccc23)C(=O)N1C` [gallium-68 labelled] has a tumour uptake of 1.7 %ID/g (CD274 (Homo sapiens, UniProt Q9NZQ7); PET; humanised NOG-EXL mice, U-87 MG xenograft; day D7 after antibody, with: anti-PD-L1 antibody 10 mg/kg).
With `OC[C@H]1O[C@@H](Oc2cc3c(O)cc(O)cc3[o+]c2-c2cc(O)c(O)c(O)c2)[C@H](O)[C@@H](O)[C@@H]1O` the Kd was 23.2 ± 2.73 µM (ALB; binding, fluorescence quenching; pH 7, 40 °C, HSA 2 µM).
`Cc1oncc1C(=O)Nc1ccc(C(F)(F)F)cc1` gave an inhibition of 5.9% (SLC22A2; transport, inhibitor; transiently transfected cells; 100 µM, 10 (unit not given), with: metformin).
The CLint of `O=C(O)C(F)(F)C(F)(F)C(F)(F)C(F)(F)C(F)(F)C(F)(F)C(F)(F)F` is reported as 30.2 ± 11 µL/min/mg (SLC22A11 (Homo sapiens, UniProt Q9NSA0); uptake, substrate; HEK293 cells stably expressing SLC22A11, HBSS with HEPES; pH 6.8).
